# Published values pooled from the literature.
# Each line is one published result; not all experiments were run side by side. Numbers after ± are the reported error.
# ABL2 SH2 domain: Tyrosine-protein kinase ABL2, SH2 domain (ABL2, Homo sapiens, UniProt P42684)
# Chain of UniProt P42684 (whole entry, looked up): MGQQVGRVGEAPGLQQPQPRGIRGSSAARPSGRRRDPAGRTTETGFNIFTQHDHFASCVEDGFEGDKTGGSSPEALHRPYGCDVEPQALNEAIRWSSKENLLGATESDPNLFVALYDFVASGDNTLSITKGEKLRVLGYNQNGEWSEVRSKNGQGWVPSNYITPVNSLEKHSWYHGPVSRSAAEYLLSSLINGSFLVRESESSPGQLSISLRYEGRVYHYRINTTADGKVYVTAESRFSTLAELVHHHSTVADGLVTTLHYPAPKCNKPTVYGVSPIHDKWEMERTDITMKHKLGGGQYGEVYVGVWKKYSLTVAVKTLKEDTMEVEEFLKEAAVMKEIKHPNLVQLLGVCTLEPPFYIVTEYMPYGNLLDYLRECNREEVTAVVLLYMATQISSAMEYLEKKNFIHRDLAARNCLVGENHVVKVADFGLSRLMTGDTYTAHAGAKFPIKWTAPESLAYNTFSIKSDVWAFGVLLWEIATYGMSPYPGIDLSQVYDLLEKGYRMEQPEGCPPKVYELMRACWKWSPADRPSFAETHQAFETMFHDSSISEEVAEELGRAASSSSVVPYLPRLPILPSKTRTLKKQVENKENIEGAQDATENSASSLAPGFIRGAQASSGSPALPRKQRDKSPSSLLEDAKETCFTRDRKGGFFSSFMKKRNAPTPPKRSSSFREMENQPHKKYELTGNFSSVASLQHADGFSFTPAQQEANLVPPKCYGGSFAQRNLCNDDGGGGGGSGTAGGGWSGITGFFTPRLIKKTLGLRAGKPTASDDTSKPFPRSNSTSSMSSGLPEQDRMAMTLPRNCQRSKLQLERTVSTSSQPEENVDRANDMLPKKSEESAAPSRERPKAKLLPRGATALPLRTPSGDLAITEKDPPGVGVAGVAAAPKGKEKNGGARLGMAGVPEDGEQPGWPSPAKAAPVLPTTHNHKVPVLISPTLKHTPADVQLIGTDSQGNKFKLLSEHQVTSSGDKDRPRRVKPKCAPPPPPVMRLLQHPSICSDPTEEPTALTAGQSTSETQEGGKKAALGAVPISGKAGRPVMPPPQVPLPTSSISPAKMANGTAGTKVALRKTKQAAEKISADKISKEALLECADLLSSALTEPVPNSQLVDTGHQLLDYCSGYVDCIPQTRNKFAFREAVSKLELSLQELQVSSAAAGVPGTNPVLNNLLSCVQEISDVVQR
# SYK SH2 domains: Tyrosine-protein kinase SYK, SH2 domains (SYK, Homo sapiens, UniProt P43405)
# Chain of UniProt P02786 (whole entry, looked up): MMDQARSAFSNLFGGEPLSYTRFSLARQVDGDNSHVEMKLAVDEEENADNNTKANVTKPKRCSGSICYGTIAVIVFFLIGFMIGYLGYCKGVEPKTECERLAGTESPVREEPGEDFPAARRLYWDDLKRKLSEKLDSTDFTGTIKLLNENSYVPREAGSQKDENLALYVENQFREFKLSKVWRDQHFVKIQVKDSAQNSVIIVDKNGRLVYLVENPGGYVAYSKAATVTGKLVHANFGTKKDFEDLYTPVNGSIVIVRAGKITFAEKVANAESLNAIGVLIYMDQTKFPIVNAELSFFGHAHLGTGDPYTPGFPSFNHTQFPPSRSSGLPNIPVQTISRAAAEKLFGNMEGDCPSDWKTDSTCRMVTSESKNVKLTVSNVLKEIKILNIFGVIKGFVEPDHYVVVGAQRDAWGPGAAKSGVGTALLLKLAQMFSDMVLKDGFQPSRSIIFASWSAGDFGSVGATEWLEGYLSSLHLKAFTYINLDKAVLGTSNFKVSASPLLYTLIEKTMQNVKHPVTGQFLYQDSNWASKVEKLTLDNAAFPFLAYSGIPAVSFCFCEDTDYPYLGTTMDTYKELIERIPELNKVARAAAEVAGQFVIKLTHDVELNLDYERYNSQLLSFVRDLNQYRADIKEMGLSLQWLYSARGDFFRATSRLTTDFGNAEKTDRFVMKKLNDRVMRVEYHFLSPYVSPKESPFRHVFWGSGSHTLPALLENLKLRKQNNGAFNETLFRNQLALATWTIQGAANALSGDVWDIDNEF
# Chain of UniProt Q16548 (whole entry, looked up): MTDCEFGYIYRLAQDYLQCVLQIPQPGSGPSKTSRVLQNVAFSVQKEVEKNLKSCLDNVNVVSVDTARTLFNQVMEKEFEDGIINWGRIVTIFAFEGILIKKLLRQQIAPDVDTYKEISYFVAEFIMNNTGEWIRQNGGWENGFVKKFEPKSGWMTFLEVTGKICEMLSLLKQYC
# Chain of UniProt Q08460 (whole entry, looked up): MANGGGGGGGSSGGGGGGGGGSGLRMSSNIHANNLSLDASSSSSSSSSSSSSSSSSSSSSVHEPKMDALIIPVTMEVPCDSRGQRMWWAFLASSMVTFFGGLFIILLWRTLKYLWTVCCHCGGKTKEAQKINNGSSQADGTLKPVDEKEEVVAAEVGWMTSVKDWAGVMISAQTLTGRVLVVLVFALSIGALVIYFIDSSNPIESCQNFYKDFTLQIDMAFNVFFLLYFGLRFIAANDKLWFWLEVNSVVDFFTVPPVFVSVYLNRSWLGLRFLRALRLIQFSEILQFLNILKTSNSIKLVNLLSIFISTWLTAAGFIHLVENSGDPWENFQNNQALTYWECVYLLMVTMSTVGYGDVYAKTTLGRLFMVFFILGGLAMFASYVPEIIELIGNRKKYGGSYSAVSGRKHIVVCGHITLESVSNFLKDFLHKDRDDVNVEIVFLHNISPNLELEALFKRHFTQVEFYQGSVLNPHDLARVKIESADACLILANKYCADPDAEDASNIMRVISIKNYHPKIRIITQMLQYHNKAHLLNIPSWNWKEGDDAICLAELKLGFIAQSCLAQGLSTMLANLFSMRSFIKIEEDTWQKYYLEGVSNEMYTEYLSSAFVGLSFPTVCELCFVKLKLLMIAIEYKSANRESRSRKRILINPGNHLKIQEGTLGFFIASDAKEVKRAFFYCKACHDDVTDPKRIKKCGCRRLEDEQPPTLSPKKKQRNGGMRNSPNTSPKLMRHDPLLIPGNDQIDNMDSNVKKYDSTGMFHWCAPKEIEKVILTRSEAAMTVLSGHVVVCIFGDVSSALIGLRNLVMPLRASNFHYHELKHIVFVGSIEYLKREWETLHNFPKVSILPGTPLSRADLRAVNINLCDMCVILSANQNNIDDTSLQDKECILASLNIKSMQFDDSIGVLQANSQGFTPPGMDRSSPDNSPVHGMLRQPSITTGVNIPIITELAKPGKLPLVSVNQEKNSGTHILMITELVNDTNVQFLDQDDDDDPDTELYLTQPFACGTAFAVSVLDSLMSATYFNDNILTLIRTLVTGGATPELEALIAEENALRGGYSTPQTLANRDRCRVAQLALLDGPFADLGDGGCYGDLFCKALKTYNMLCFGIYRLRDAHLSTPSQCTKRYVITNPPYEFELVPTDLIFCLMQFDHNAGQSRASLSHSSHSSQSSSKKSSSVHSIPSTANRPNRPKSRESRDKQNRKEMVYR
# Chain of UniProt P51449 (whole entry, looked up): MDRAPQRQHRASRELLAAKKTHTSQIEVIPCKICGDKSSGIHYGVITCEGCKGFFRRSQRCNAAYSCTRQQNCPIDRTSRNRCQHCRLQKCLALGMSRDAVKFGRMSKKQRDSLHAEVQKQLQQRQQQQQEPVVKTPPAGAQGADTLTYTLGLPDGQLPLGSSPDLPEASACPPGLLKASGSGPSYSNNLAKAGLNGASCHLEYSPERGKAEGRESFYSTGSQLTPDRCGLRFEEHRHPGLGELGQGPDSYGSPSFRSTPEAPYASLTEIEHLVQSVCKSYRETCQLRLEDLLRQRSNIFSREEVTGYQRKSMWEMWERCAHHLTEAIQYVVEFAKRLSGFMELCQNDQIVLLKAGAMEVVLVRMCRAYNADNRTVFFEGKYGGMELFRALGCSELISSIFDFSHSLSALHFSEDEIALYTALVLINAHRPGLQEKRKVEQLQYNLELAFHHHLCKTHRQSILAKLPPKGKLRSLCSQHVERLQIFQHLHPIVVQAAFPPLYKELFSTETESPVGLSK
# Chain of UniProt P52735 (whole entry, looked up): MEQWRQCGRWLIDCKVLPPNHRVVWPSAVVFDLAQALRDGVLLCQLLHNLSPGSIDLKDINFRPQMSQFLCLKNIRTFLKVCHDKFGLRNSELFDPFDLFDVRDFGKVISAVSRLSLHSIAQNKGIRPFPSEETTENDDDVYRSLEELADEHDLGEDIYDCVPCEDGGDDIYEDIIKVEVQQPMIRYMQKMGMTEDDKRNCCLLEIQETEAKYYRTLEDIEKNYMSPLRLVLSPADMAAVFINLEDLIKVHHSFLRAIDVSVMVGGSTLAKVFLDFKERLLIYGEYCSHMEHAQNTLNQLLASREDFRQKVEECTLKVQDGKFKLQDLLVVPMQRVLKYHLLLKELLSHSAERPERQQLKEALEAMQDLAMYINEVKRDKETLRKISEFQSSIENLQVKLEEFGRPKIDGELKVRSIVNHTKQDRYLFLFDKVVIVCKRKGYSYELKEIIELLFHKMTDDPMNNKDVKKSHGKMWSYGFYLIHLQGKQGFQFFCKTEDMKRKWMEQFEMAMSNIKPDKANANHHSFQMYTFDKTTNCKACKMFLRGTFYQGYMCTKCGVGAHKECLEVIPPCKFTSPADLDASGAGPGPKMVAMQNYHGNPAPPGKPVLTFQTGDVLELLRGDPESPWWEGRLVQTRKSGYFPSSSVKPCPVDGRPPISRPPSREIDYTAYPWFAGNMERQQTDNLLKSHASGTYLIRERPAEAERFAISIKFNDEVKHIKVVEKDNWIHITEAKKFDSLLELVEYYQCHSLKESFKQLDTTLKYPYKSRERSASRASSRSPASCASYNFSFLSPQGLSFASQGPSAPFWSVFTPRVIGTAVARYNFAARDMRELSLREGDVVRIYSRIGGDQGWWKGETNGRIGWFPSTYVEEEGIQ
Compound,target,assay,test system,setting,Kd
CC(C)C[C@H](NC(=O)[C@H](Cc1ccc(OP(=O)(O)O)cc1)NC(=O)[C@H](CCC(=O)O)NC(=O)[C@H](C)NC(=O)[C@H](CC(N)=O)NC(=O)[C@H](CCC(=O)O)NC(=O)[C@H](C)NC(=O)[C@@H](NC(=O)[C@H](CO)NC(=O)CNC(=O)[C@H](CCCCN)NC(=O)c1ccc2c(c1)C(=O)OC21c2ccc(N(C)C)cc2Oc2cc(N(C)C)ccc21)[C@@H](C)O)C(=O)N[C@@H](CCCNC(=N)N)C(=O)N[C@H](C(=O)N[C@@H](C)C(=O)N1CCC[C@H]1C(=O)N[C@@H](CCC(N)=O)C(=O)N[C@@H](CO)C(=O)N[C@@H](CC(=O)O)C(=O)O)C(C)C,ABL2 SH2 domain,binding,,,214 nM
C[C@H](O)[C@H](O)c1cnc2[nH]c(N)nc(=O)c2n1,"Phenylalanine-4-hydroxylase (phhA, Chromobacterium violaceum, UniProt P30967)",,,,55200 ± 11900 nM
CCCCCCCCCC(=O)CC(=O)N[C@H]1CCOC1=O,"qscR, ligand-binding domain (Pseudomonas aeruginosa, UniProt G3XD77)","ligand binding, FRET displacement",,ligand-binding domain,0.724 nM
CC[C@H](C)[C@H](NC(=O)[C@H](CNC(=O)CCl)NC(C)=O)C(=O)N[C@@H](C)C(=O)N[C@@H](CCC(N)=O)C(=O)N[C@@H](CCC(=O)O)C(=O)N[C@@H](CC(C)C)C(=O)N[C@@H](CCCNC(=N)N)C(=O)N[C@@]1(C)CCC/C=C\CCC[C@@](C)(C(=O)N[C@@H](Cc2ccccc2)C(=O)N[C@@H](CC(N)=O)C(=O)N[C@@H](C)C(=O)N[C@@H](Cc2ccc(O)cc2)C(=O)N[C@@H](Cc2ccc(O)cc2)C(=O)N[C@@H](C)C(=O)N[C@@H](CCCNC(=N)N)C(=O)N[C@@H](CCCNC(=N)N)C(N)=O)NC(=O)[C@H](CC(=O)O)NC(=O)CNC(=O)[C@H]([C@@H](C)CC)NC1=O,"Bcl-2-related protein A1 (Homo sapiens, UniProt Q16548)",isothermal titration calorimetry,,"25 °C, 10% DMSO",no binding
CC[C@@H](C)[C@@H](NC(=O)[C@@H](Cc1ccc(O)cc1)NC(=O)[C@H]1CCCN1C(=O)[C@@H](CCCNC(=N)N)NC(=O)[C@H](N)Cc1c[nH]cn1)C(=O)N[C@H](C)C(=O)N[C@H](Cc1c[nH]cn1)C(=O)N[C@H](CCCNC(=N)N)C(=O)N[C@H](CCCCNC(=O)c1cccc(S(=O)(=O)F)c1)C(=O)N[C@H](Cc1ccc(O)cc1)C(=O)N[C@H](CO)C(=O)N[C@H](Cc1ccccc1)C(N)=O,"TFRC (Homo sapiens, UniProt P02786)",microscale thermophoresis,,"6 h, OFP-tagged protein",15700 ± 600 nM
CC[C@H](C)[C@H](NC(=O)[C@H](CCC(N)=O)NC(=O)[C@@H](NC(=O)[C@@H]1CCCN1C(=O)[C@@H](NC(=O)[C@H](CO)NC(=O)[C@H](Cc1ccccc1)NC(=O)[C@@H]1CCCN1C(=O)[C@H](CCC(N)=O)NC(=O)[C@@H](N)CCSC)[C@@H](C)CC)C(C)C)C(=O)N[C@H](C(=O)N[C@@H](CC(C)C)C(=O)N[C@@H](CCC(N)=O)C(=O)NCC(=O)N[C@@H](CO)C(=O)N[C@@H](CCCNC(=N)N)C(=O)N[C@@H](CCCNC(=N)N)C(=O)N[C@@H](CCCNC(=N)N)C(=O)N[C@@H](CCC(N)=O)C(=O)NCC(=O)N[C@@H](CCCNC(=N)N)C(N)=O)[C@@H](C)O,"Kcnma1 (Mus musculus, UniProt Q08460)","ion current, blocker, inside-out patch clamp",Xenopus oocytes,"range over 0.25 µM, pH 7.0, 22–24 °C, at 0 mV, added: 10 µM cytosolic Ca2+",1200 nM
CC[C@H](C)[C@H](NC(=O)[C@H](Cc1ccc(OP(=O)(O)O)cc1)NC(=O)[C@H](CCC(=O)O)NC(=O)[C@@H]1CCCN1C(=O)[C@@H](NC(=O)[C@@H]1CCCN1C(=O)[C@H](CC(C)C)NC(=O)[C@H](Cc1ccccc1)NC(=O)[C@@H](NC(=O)[C@H](CC(=O)O)NC(=O)[C@H](CC(=O)O)NC(=O)c1ccc2c(c1)C(=O)OC21c2ccc(N(C)C)cc2Oc2cc(N(C)C)ccc21)[C@@H](C)O)C(C)C)C(=O)N[C@@H](CC(N)=O)C(=O)N[C@@H](CCC(N)=O)C(=O)N[C@@H](CO)C(=O)N[C@H](C(=O)N1CCC[C@H]1C(=O)N[C@@H](CCCCN)C(=O)N[C@@H](CC(=O)O)C(=O)O)C(C)C,"Guanine nucleotide exchange factor VAV2, SH2 domain (VAV2, Homo sapiens, UniProt P52735)",binding,,,542 nM
Nc1ncnc2c1ncn2[C@@H]1O[C@H](COP(=O)(O)O)[C@@H](OP(=O)(O)O)[C@H]1O,"Thermonuclease, denatured (nuc, Staphylococcus aureus, UniProt P00644)",binding,,pH 7,780000 nM
Nc1ncnc2c1ncn2[C@@H]1O[C@H](COP(=O)(O)OP(=O)(O)OP(=O)(O)O)[C@@H](O)[C@H]1O,"matB (Rhodopseudomonas palustris, UniProt Q6ND88, C106A/K488A/Q457C/R286C)",binding,,"pH 7.0, 200 mM NaCl",19000 ± 1000 nM
O=C(O)c1nccnc1NC(=O)c1cccc2ccccc12,"panD (Mycobacteroides abscessus, UniProt B1MGV7)",isothermal titration calorimetry,,,143000 ± 5600 nM
COc1ccc2cc3[n+](cc2c1OC)CCc1cc2c(cc1-3)OCO2,"RORC (Homo sapiens, UniProt P51449)",SPR,ligand-binding domain,,108000 nM
C[C@H](NC(=O)[C@@H](NC(=O)[C@H](CO)NC(=O)[C@H](Cc1c[nH]cn1)NC(=O)[C@@H]1CCCN1C(=O)[C@H](CC(=O)O)NC(=O)[C@H](CCC(N)=O)NC(=O)[C@H](Cc1ccc(OP(=O)(O)O)cc1)NC(=O)[C@H](Cc1c[nH]cn1)NC(=O)[C@@H]1CCCN1C(=O)[C@H](CC(=O)O)NC(=O)[C@H](CCCNC(=N)N)NC(=O)[C@H](CO)NC(=O)[C@@H]1CCCN1C(=O)[C@H](C)NC(=O)[C@@H]1CCCN1C(=O)[C@H](CC(N)=O)NC(=O)c1ccc2c(c1)C(=O)OC21c2ccc(N(C)C)cc2Oc2cc(N(C)C)ccc21)[C@@H](C)O)C(=O)N[C@@H](CC(=O)O)C(=O)O,SYK SH2 domains,binding,,,981 nM
CC(C)C[C@H](NC(=O)[C@H](CO)NC(=O)[C@H](CO)NC(=O)CNC(=O)[C@@H]1CCCN1C(=O)[C@H](Cc1ccc(O)cc1)NC(=O)[C@H](CC(C)C)NC(=O)[C@H](CO)NC(=O)[C@H](CS)NC(=O)[C@H](CC(C)C)NC(=O)[C@@H](N)CC(C)C)C(=O)O,"Epidermal growth factor receptor, extracellular domain (EGFR, Homo sapiens, UniProt P00533)","binding, first site, surface plasmon resonance",immobilised soluble EGFR,"25 °C, model, binding, one to two",363000 nM
CC(=O)N[C@H]1[C@@H](OC[C@H]2O[C@@H](O)[C@H](O)[C@@H](O)[C@H]2O)O[C@H](CO)[C@H](O)[C@@H]1O,Helix pomatia agglutinin,glycan microarray,,4 glycans per BSA,11 ± 3 nM
N=C(N)NCCC[C@H](N)C(=O)O,"uncharacterized protein (Pelagibacter ubique, UniProt Q4FLC2)",isothermal titration calorimetry,Candidatus Pelagibacter ubique,"displacement titration, added: octopine competitor 250 µM",0.0175 nM
CSCC[C@H](NC(=O)[C@H](CC(C)C)NC(=O)[C@H](C)NC(=O)[C@H](CCCNC(=N)N)NC(=O)[C@H](Cc1ccc(OP(=O)(O)O)cc1)NC(=O)[C@H](Cc1ccccc1)NC(=O)[C@H](CC(N)=O)NC(=O)[C@H](CO)NC(=O)[C@H](CC(=O)O)NC(=O)[C@@H](NC(=O)[C@@H]1CCCN1C(=O)[C@H](CO)NC(=O)[C@@H]1CCCN1C(=O)[C@H](CC(C)C)NC(=O)c1ccc2c(c1)C(=O)OC21c2ccc(N(C)C)cc2Oc2cc(N(C)C)ccc21)[C@@H](C)O)C(=O)N[C@@H](CC(=O)O)C(=O)N[C@@H](CCC(=O)O)C(=O)N[C@@H](CCC(=O)O)C(=O)N[C@@H](CC(=O)O)C(=O)O,ABL2 SH2 domain,binding,,,1500 nM
COc1cc(O)cc(/C=C/c2ccc(O)cc2)c1,"O-methyltransferase (Sorghum bicolor, UniProt A0A1B6PFV1)",binding,,added: saturating S-adenosylhomocysteine,129 ± 34.6 nM
CSCC[C@H](NC(=O)CNC(=O)[C@H](Cc1ccccc1)NC(=O)[C@H](CC(=O)O)NC(=O)CNC(=O)c1ccc2c(c1)C(=O)OC21c2ccc(N(C)C)cc2Oc2cc(N(C)C)ccc21)C(=O)N[C@@H](CO)C(=O)N[C@@H](CCCNC(=N)N)C(=O)N[C@@H](CC(=O)O)C(=O)N[C@H](C(=O)N[C@@H](Cc1ccc(OP(=O)(O)O)cc1)C(=O)N[C@@H](CO)C(=O)N[C@H](C(=O)N[C@@H](CC(=O)O)C(=O)N[C@@H](Cc1ccc(O)cc1)C(=O)N[C@@H](Cc1ccc(O)cc1)C(=O)N[C@@H](CCCNC(=N)N)C(=O)N[C@H](C(=O)N[C@@H](CC(=O)O)C(=O)O)C(C)C)[C@@H](C)O)C(C)C,SYK SH2 domains,binding,,,547 nM
CCCCCCCCCCCC(=O)N[C@H]1CCOC1=O,"qscR, DNA-bound dimer (Pseudomonas aeruginosa, UniProt G3XD77)","ligand binding, FRET displacement",,protein with DNA,0.196 nM
CC[C@H](C)[C@H](NC(=O)c1ccc2c(c1)C(=O)OC21c2ccc(N(C)C)cc2Oc2cc(N(C)C)ccc21)C(=O)N[C@@H](CCC(=O)O)C(=O)N[C@@H](CO)C(=O)N[C@@H](CO)C(=O)N[C@@H](CC(N)=O)C(=O)N[C@@H](Cc1ccc(O)cc1)C(=O)N[C@@H](CCSC)C(=O)N[C@@H](C)C(=O)N1CCC[C@H]1C(=O)N[C@@H](Cc1ccc(OP(=O)(O)O)cc1)C(=O)N[C@@H](CC(=O)O)C(=O)N[C@@H](CC(N)=O)C(=O)N[C@@H](Cc1ccc(O)cc1)C(=O)N[C@H](C(=O)N1CCC[C@H]1C(=O)N[C@@H](CO)C(=O)N[C@@H](C)C(=O)N[C@@H](CC(=O)O)C(=O)O)C(C)C,ABL2 SH2 domain,binding,,,28 nM
Nc1ncnc2c1ncn2[C@@H]1O[C@H](CN(CC[C@H](N)C(=O)O)Cc2cn(CCNC(=O)c3ccc4c(c3)C(=O)OC43c4ccc(O)cc4Oc4cc(O)ccc43)nn2)[C@@H](O)[C@H]1O,"Genome polyprotein, NS5 methyltransferase domain (GP1, West Nile virus, UniProt Q9Q6P4)",binding,,,280 nM

# For quick reference, copied from above:
Compound,target,assay,test system,setting,Kd
CC(C)C[C@H](NC(=O)[C@H](CO)NC(=O)[C@H](CO)NC(=O)CNC(=O)[C@@H]1CCCN1C(=O)[C@H](Cc1ccc(O)cc1)NC(=O)[C@H](CC(C)C)NC(=O)[C@H](CO)NC(=O)[C@H](CS)NC(=O)[C@H](CC(C)C)NC(=O)[C@@H](N)CC(C)C)C(=O)O,"Epidermal growth factor receptor, extracellular domain (EGFR, Homo sapiens, UniProt P00533)","binding, first site, surface plasmon resonance",immobilised soluble EGFR,"25 °C, model, binding, one to two",363000 nM
CC[C@@H](C)[C@@H](NC(=O)[C@@H](Cc1ccc(O)cc1)NC(=O)[C@H]1CCCN1C(=O)[C@@H](CCCNC(=N)N)NC(=O)[C@H](N)Cc1c[nH]cn1)C(=O)N[C@H](C)C(=O)N[C@H](Cc1c[nH]cn1)C(=O)N[C@H](CCCNC(=N)N)C(=O)N[C@H](CCCCNC(=O)c1cccc(S(=O)(=O)F)c1)C(=O)N[C@H](Cc1ccc(O)cc1)C(=O)N[C@H](CO)C(=O)N[C@H](Cc1ccccc1)C(N)=O,"TFRC (Homo sapiens, UniProt P02786)",microscale thermophoresis,,"6 h, OFP-tagged protein",15700 ± 600 nM
